Results gathered from unrelated publications.
Protocols differ between the studies behind these lines. ± marks the error that the study gave.

Structure (SMILES) = CCC1NC(=O)C(CCCNC(=N)N)NC(=O)C(C)(NC(=O)C(C)C)CCCCNC(=O)C(c2ccccc2)NC1=O (stereo not shown); assay = ChIP, item: Hoxa1-Hoxa6 loci; test system = MLL-AF9 leukaemia cells, mouse; conditions = dose not given; endpoint = H3K4me2 level; value = no effect
Structure (SMILES) = CC(=NN=c1[nH]c2cc(F)c(F)cc2n1C)c1ccc(F)cn1; assay = item: Ki67; test system = MDA-MB-231 xenograft, SCID mice; conditions = 10 mg/kg/day, end of treatment; endpoint = proliferating cells; value = ~23%
Structure (SMILES) = Cc1nn(C)c2c(C(C(=O)O)N3CC(OCCCCc4ccc5c(n4)NCCC5)C3)cccc12 (stereo not shown); assay = item: small PA medial wall thickness; test system = rat, Sugen/hypoxia model; scale = relative to: vehicle or IgG; endpoint = pulmonary vascular remodelling; value = decreased
Structure (SMILES) = N=C(N)NCCC[C@H](NC(=O)[C@@H]1CSSC[C@H](NC(=O)[C@H](Cc2ccc3ccccc3c2)NC(=O)[C@H](CCCNC(=N)N)NC(=O)[C@H](CCCNC(=N)N)NC(=O)c2ccc(F)cc2)C(=O)N[C@@H](Cc2ccc(O)cc2)C(=O)N[C@@H](CCCNC(N)=O)C(=O)N[C@@H](CCCCN)C(=O)N[C@H](CCCCN)C(=O)N2CCC[C@H]2C(=O)N[C@@H](Cc2ccc(O)cc2)C(=O)N[C@@H](CCCNC(=N)N)C(=O)N[C@@H](CCCNC(N)=O)C(=O)N1)C(N)=O; assay = cell mobilization, antagonist, flow cytometry; test system = normal mice, peripheral blood; conditions = subcutaneous, 50 µg per mouse, 30 min, 1, 2 h; scale = relative to: untreated mice; endpoint = white blood cell count; value = 4 fold
Structure (SMILES) = CC(=O)N[C@H](C(=O)N[C@@H](CC(=O)O)C(=O)N[C@H](C(=O)N1CCc2cc(C)ccc2[C@@H]1C(=O)N[C@H](C=O)CC(=O)O)C(C)C)C(C)C; test system = primary hippocampal neurons, PS19 mouse, P301S tau transgenic; conditions = 10 µM, 3 days; endpoint = mEPSC frequency; value = no effect
Structure (SMILES) = CCCCN(CCc1ccc(Cl)c(Cl)c1)C[C@H](O)COc1ccc(NS(C)(=O)=O)cc1; test system = mouse, transient MCAO; conditions = intracerebroventricular, dose not given, 20 min before occlusion; scale = relative to: vehicle; endpoint = infarct volume reduction; value = 59%
Structure (SMILES) = CN(C)C(=O)Cn1cc(-c2ccc(-c3cncc4ccncc34)cc2)cn1; assay = item: phospho-STAT1 Ser727; test system = mouse C57BL/6, splenic NK1.1+ NK cells; conditions = oral, 75 mg/kg, single, 6 h; endpoint = STAT1 Ser727 phosphorylation; value = decreased
Structure (SMILES) = COc1cc(-c2n[nH]c3ccc(/C=C(\C#N)C(=O)NC(C)(C)CO)cc23)cc(OC)c1OC; test system = cell culture; conditions = concentration not given; endpoint = duration of activity; value = 12 to 24 h
Structure (SMILES) = Cc1ncsc1-c1ccc([C@H](C)NC(=O)[C@@H]2C[C@@H](O)CN2C(=O)[C@@H](NC(=O)CCCCCCC(=O)N2CCN(C[C@]3(C)CCC(c4ccc(Cl)cc4)=C(CN4CCN(c5ccc(C(=O)NS(=O)(=O)c6ccc(N[C@H](CCN7CCOCC7)CSc7ccccc7)c(S(=O)(=O)C(F)(F)F)c6)cc5)CC4)C3)CC2)C(C)(C)C)cc1; assay = item: Ccl2 and Ccl5; test system = STAM mice NASH-HCC model, liver; conditions = dose not given, day 150, treated days 45-90; endpoint = mRNA level; value = no effect
Structure (SMILES) = C[C@@H]1CN(C2CCC2)CC[C@H](O[C@H]2[C@@H](O)C[C@H](O[C@H]3[C@@H](O)C[C@H](O[C@H]4CC[C@@]5(C)[C@H](CC[C@@H]6[C@@H]5C[C@@H](O)[C@]5(C)[C@@H](C7=CC(=O)OC7)CC[C@]65O)C4)O[C@@H]3C)O[C@@H]2C)O1; test system = rat hippocampal slices; conditions = 10 µM, ~14 min, trace 2, together with: electrical stimulation; scale = relative to: pre-drug control; endpoint = peak stimulus-induced K+ rise; value = 143 ± 13%
